Measurements of several laboratories.
Parts stem from different laboratories: compare values within a part only. Changes are numbered by the printed parent chain.

Block 1 — read-out: peptide-MHC binding; molecule type: peptide; concentration: concentration not given
Target: HLA class I histocompatibility antigen, A alpha chain, allele A*80:01 (Homo sapiens, UniProt P04439)
`AHYEEDVNL`: binding “inactive”.
For `WQQWDRQSL`, binding read “inactive”.
`QLSLKMLSL` — result for binding: “inactive”.
For `DEFLKVPEW`, binding read “inactive”.
`YQTYVSPGA` — result for binding: “inactive”.
For `EHVQGDIDL`, binding read “inactive”.
For `KSAFYQSYL`, binding read “inactive”.
Under binding, `LFPELECFF` is recorded as “inactive”.
`KGMKIQHFK`: binding “inactive”.
`FELLHFISS` — result for binding: “inactive”.

Block 2 — target: CCNB1, cyclin fold, Cln2 fusion (human); method: yeast growth competition, sequencing; matrix: yeast; setting: strong parent motif; relative to: not given; reading: higher = stronger binding
Starting sequence: viral docking peptide; KGVKRKLFAEDSS; partner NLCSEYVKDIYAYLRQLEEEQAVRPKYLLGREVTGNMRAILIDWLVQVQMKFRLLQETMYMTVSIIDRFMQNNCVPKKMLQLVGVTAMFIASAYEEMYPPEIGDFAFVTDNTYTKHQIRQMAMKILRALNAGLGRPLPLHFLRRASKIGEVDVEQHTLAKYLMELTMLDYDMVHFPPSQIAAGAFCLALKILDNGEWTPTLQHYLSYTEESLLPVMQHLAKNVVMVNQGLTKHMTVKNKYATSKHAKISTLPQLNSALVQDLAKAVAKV
Under “normalised enrichment score”, `KGVKRKLFAEDPS [S12P]` is recorded as 2.8.
For `KGVKRHLFAEDSS [K6H]`, “normalised enrichment score” read 0.35.
Under “normalised enrichment score”, `KGNKRKLFAEDSS [V3N]` is recorded as 0.364.
For `KGVKRKLFAQDSS [E10Q]`, “normalised enrichment score” read 0.817.
`KGVKRKYFAEDSS [L7Y]`: “normalised enrichment score” 0.352.
For `KGEKRKLFAEDSS [V3E]`, “normalised enrichment score” read 0.216.
For `KGVKRKLFDEDSS [A9D]`, “normalised enrichment score” read 3.29.
Under “normalised enrichment score”, `KGVKFKLFAEDSS [R5F]` is recorded as 0.323.
Under “normalised enrichment score”, `KGWKRKLFAEDSS [V3W]` is recorded as 0.53.
`KGVKRKLFAEDMS [S12M]`: “normalised enrichment score” 2.2.
`KGVKRKFFAEDSS [L7F]` — result for “normalised enrichment score”: 0.447.
For `KSVKRKLFAEDSS [G2S]`, “normalised enrichment score” read 2.7.
`KGVKRKLFADDSS [E10D]`: “normalised enrichment score” 3.24.
For `KGVKRKLIAEDSS [F8I]`, “normalised enrichment score” read 0.0961.
Under “normalised enrichment score”, `KGVKYKLFAEDSS [R5Y]` is recorded as 0.0621.
`KGVKRKLFAVDSS [E10V]` — result for “normalised enrichment score”: 0.831.
For `KGVKRKLFAEWSS [D11W]`, “normalised enrichment score” read 0.798.
For `KGVKRKLAAEDSS [F8A]`, “normalised enrichment score” read 0.706.
`KGVKRKLFAEQSS [D11Q]`: “normalised enrichment score” 1.05.
`KYVKRKLFAEDSS [G2Y]`: “normalised enrichment score” 1.01.
`KTVKRKLFAEDSS [G2T]` — result for “normalised enrichment score”: 1.97.
`KGVKRKLLAEDSS [F8L]`: “normalised enrichment score” -0.0108.
`KGVHRKLFAEDSS [K4H]` — result for “normalised enrichment score”: 1.
Under “normalised enrichment score”, `KGVRRKLFAEDSS [K4R]` is recorded as 4.33.
`KGVKRKLFLEDSS [A9L]`: “normalised enrichment score” 2.09.

Block 3 — method: universal PBM; molecule type: double-stranded DNA, one strand shown; matrix: in vitro; concentration: not given; reading: higher = stronger binding
Target: Sal-like protein 4, full length isoform B (SALL4, Homo sapiens, UniProt Q9UJQ4-2, residues 1-616)
Setting: 8-mer, flanks averaged, mean of replicates
Residues (chain): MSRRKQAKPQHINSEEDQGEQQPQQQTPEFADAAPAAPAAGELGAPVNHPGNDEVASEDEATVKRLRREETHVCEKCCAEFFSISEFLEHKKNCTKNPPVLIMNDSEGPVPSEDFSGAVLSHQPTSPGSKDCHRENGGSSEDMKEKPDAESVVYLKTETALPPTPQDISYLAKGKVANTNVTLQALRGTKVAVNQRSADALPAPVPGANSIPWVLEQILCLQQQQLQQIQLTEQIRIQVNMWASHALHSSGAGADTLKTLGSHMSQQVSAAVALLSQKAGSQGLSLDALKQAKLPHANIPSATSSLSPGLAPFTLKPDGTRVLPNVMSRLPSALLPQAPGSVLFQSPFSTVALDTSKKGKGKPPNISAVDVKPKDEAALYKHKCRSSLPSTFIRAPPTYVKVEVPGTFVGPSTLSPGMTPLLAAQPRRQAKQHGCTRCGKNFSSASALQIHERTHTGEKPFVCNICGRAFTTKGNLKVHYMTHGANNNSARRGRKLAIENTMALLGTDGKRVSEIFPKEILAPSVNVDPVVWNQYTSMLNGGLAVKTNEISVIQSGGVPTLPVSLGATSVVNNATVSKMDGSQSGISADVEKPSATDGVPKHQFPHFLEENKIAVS
For `GGTCCGCA`, the E-score was -0.297.
`GCCTGGAC` has an E-score of -0.205.
`CTCGACTA` gave an E-score of -0.079.
For `ACGGGAAC`, the E-score was -0.139.
With `CCAGTCAA` the E-score was -0.118.
`GGGGAATA` has an E-score of 0.113.
The E-score of `CACCCACA` is reported as -0.205.
With `GATTCGCA` the E-score was -0.1.

Block 4 — target: UBE2W UBC core domain (UniProt Q96B02); method: yeast two-hybrid; matrix: yeast; setting: mostly zero background; relative to: not given; reading: higher = stronger interaction
B1: RNF25 RING domain (UniProt Q96BH1); chain LTDNNIPHGQCVICLYGFQEKEAFTKTPCYHYFHCHCLARYIQHMEQELKAQGQEQEQERQHATTKQKAVGVQCPVCREPLVYDLASL
B2: TRIM72 RING domain (UniProt Q6ZMU5); chain APGLLHQELSCPLCLQLFDAPVTAECGHSFCRACLGRVAGEPAADGTVLCPCCQAPTRPQALST
B3: TRIM8 RING domain (UniProt Q9BZR9); chain WKNCFEEELICPICLHVFVEPVQLPCKHNFCRGCIGEAWAKDSGLVRCPECNQAYNQKPGLE
B4: TRIM69 RING domain (UniProt Q86WT6); chain VIQDITMELHCPLCNDWFRDPLMLSCGHNFCEACIQDFWRLQAKETFCPECKMLCQYNNCTF
B5: ARK2C RING domain (UniProt Q6ZSG1); chain EGEESDTDEKCTICLSMLEDGEDVRRLPCMHLFHQLCVDQWLAMSKKCPICRVDIETQLGAD
B6: IRF2BPL RING domain (UniProt Q9H1B7); chain SPMANSGPLCCTICHERLEDTHFVQCPSVPSHKFCFPCSRESIKAQGATGEVYCPSGEKCPLVGSNVP
B7: MID1 RING domain (UniProt O15344); chain METLESELTCPICLELFEDPLLLPCAHSLCFNCAHRILVSHCATNESVESITAFQCPTCRHVITLSQRGL
B8: RNF170 RING domain (UniProt Q96K19); chain TRQQFYTDMYCPICLHQASFPVETNCGHLFCGACIIAYWRYGSWLGAISCPICRQTVTLLLTVF
B9: ZNF598 RING domain (UniProt Q86UK7); chain AAAPERGGGSCVLCCGDLEATALGRCDHPVCYRCSTKMRVLCEQRYCAVCREELRQVVFGK
B10: UHRF2 RING domain (UniProt Q96PU4); chain CGGDPEKKCHSCSCRVCGGKHEPNMQLLCDECNVAYHIYCLNPPLDKVPEEEYWYCPSCKTDSSEVVKAGER
B11: RC3H2 RING domain (UniProt Q9HBD1); chain QAAQWTEFLSCPICYNEFDENVHKPISLGCSHTVCKTCLNKLHRKACPFDQTAINTDIDVL
Construct (chain): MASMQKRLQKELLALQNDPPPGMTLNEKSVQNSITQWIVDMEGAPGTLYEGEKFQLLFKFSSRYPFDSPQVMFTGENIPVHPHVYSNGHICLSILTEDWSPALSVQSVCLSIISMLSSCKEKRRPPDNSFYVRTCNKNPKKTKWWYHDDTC
`B1 (RNF25 RING domain)`: “lacZ reporter activity” 0.
Under “lacZ reporter activity”, `B2 (TRIM72 RING domain)` is recorded as 0.
`QHHELTSLFECPVCFDYVLPPILQCQAGHLVCNQCRQKLSCCPTCRGALTPSIRNL (SIAH2 RING domain (UniProt O43255))`: “lacZ reporter activity” 0.
Under “lacZ reporter activity”, `B3 (TRIM8 RING domain)` is recorded as 0.
Under “lacZ reporter activity”, `B4 (TRIM69 RING domain)` is recorded as 0.
For `B5 (ARK2C RING domain)`, “lacZ reporter activity” read 11200.
For `RLTMMWEEVTCPICLDPFVEPVSIECGHSFCQECISQVGKGGGSVCPVCRQRFLLKNLRP (TRIM21 RING domain (UniProt P19474))`, “lacZ reporter activity” read 0.
Under “lacZ reporter activity”, `QLRRLQEERTCKVCMDKEVSVVFIPCGHLVVCQECAPSLRKCPICRGIIKGTVRTF (BIRC2 RING domain (UniProt Q13490))` is recorded as 6730.
For `FPEHFVKSISCQICEHILADPVETNCKHVFCRVCILRCLKVMGSYCPSCRYPCFPTDLES (RAG1 RING domain (UniProt P15918))`, “lacZ reporter activity” read 0.
`B6 (IRF2BPL RING domain)`: “lacZ reporter activity” 0.
Under “lacZ reporter activity”, `B7 (MID1 RING domain)` is recorded as 0.
Under “lacZ reporter activity”, `B8 (RNF170 RING domain)` is recorded as 0.
`B9 (ZNF598 RING domain)`: “lacZ reporter activity” 0.
For `B10 (UHRF2 RING domain)`, “lacZ reporter activity” read 0.
`B11 (RC3H2 RING domain)`: “lacZ reporter activity” 0.
`EDEVSDNSAECVVCLSDVRDTLILPCRHLCLCNTCADTLRYQANNCPICRLPFRALLQIR (RNF157 RING domain (UniProt Q96PX1))`: “lacZ reporter activity” 0.

Repeated from above (block 2):
For `KSVKRKLFAEDSS [G2S]`, “normalised enrichment score” read 2.7.
`KGVKRKLLAEDSS [F8L]`: “normalised enrichment score” -0.0108.
`KGVKRKYFAEDSS [L7Y]`: “normalised enrichment score” 0.352.
For `KGVKRHLFAEDSS [K6H]`, “normalised enrichment score” read 0.35.
`KGVKRKLFLEDSS [A9L]`: “normalised enrichment score” 2.09.
For `KGVKRKLFAEWSS [D11W]`, “normalised enrichment score” read 0.798.
Under “normalised enrichment score”, `KGVKYKLFAEDSS [R5Y]` is recorded as 0.0621.
For `KGVKRKLFAQDSS [E10Q]`, “normalised enrichment score” read 0.817.
Under “normalised enrichment score”, `KGWKRKLFAEDSS [V3W]` is recorded as 0.53.
Under “normalised enrichment score”, `KGNKRKLFAEDSS [V3N]` is recorded as 0.364.
